Assay results pooled from the literature.
Every numbered part comes from another study and shows a few of its results, in no order.

Study 1 — technique: protein binding microarray; molecule type: double-stranded DNA, one strand shown; matrix: in vitro; tested at: not given; baseline: not given; direction: higher = stronger binding
Target: Histone acetyltransferase KAT6A, winged helix 1, GST fusion (KAT6A, Homo sapiens, UniProt Q92794, residues 1-85)
Notes: 8-mer, flanks averaged, mean of 2 arrays, mostly near background
Construct (chain): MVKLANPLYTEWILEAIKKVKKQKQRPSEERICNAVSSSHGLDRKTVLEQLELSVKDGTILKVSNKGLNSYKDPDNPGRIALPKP
`ACGAAGAA` has an E-score of 0.0272.
`AGGCTGGA` gave an E-score of -0.188.
The E-score of `ATAAGGGA` is reported as -0.167.
With `CCTTACAA` the E-score was -0.0838.
`GCCGGAAC` gave an E-score of 0.315.
For `GTTTAATA`, the E-score was -0.00526.

Study 2 — technique: competition protein-binding microarray; molecule type: double-stranded DNA, one strand shown; matrix: in vitro; tested at: 2 µM; together with: Cbf1 competitor, 0.05 µM; direction: higher = stronger binding
Target: Phosphate system positive regulatory protein PHO4, full length, GST-tagged (PHO4, Saccharomyces cerevisiae, UniProt P07270, residues 1-312)
Notes: whole 60-bp probe, lowest competitor level
Residues (chain): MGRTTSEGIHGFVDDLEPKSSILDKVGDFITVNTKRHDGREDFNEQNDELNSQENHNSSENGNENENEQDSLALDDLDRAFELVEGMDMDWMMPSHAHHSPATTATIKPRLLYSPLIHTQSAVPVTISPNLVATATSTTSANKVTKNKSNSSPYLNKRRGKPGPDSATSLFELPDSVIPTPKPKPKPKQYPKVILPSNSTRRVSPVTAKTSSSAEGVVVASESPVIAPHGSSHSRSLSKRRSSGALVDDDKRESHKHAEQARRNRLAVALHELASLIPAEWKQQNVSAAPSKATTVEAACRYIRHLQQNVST
`CTTTCCCGATCTTGCTGTGTGGGTGTAGCACATTTGGTCTTGATTCGCTTGACGCTGCTG` gave a fluorescence intensity of 5430 a.u.
The fluorescence intensity of `CGTCCTAGCGATTGATGCGTGGGTGCCATGAGGAAGGTCTTGATTCGCTTGACGCTGCTG` is reported as 8540 a.u.
For `GAGCTTCAATCCTGTCACAAATCCATTGCTTGTCTCGTCTTGATTCGCTTGACGCTGCTG`, the fluorescence intensity was 3420 a.u.
The fluorescence intensity of `CGCTTATACAAAAGGAACGTGATGGGGACATTATTTGTCTTGATTCGCTTGACGCTGCTG` is reported as 13500 a.u.

Study 3 — technique: universal PBM; molecule type: double-stranded DNA, one strand shown; matrix: in vitro; tested at: 600 nM; direction: higher = stronger binding
Target: Sal-like protein 4, full length isoform A (SALL4, Homo sapiens, UniProt Q9UJQ4, residues 1-1053)
Chain of UniProt Q9UJQ4 (whole entry, looked up): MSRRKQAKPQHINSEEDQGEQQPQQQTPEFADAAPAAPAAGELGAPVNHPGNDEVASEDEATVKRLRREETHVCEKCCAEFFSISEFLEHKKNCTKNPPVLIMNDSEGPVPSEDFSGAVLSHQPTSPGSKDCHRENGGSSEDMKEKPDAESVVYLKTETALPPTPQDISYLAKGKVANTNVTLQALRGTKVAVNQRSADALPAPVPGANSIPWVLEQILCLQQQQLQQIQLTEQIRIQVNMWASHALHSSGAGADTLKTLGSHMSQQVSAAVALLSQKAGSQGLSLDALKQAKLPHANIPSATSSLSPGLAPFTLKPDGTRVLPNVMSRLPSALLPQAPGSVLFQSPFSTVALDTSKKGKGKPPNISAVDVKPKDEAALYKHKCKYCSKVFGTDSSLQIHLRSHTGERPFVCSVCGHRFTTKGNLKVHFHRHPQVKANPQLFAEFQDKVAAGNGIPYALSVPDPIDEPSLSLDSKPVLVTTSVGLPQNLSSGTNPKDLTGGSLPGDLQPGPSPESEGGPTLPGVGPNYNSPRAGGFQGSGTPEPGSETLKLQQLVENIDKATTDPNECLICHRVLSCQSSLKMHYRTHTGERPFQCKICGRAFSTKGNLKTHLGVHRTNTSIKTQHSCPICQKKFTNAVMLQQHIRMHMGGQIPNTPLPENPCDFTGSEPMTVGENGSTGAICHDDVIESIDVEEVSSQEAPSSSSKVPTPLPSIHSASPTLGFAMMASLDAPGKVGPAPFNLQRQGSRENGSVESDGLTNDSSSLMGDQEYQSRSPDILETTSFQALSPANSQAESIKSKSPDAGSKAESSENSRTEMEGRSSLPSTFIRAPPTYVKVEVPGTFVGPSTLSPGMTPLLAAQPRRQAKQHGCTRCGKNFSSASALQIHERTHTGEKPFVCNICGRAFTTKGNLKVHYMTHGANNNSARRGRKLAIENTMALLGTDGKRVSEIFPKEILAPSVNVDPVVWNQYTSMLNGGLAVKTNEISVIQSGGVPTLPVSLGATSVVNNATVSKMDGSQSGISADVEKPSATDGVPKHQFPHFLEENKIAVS
Notes: 8-mer, flanks averaged, mean of replicates
For `AGGCTACG`, the E-score was -0.244.
For `CCGTCACC`, the E-score was -0.21.
The E-score of `ACGAAACT` is reported as 0.0167.
`CCTTCTCC` gave an E-score of -0.216.
`CAGGGCGG` has an E-score of -0.287.
`TCATGTCA` has an E-score of 0.14.

Mixed results
`PhoQ, residues 284 288 289 292 302 303 SNGLAW` gave a fold induction of 14 (PhoP, residues 12 14 15 18 19 HLGGL (Escherichia coli, UniProt P23836); Sort-seq, refers to: YFP reporter; E. coli; PhoQ-PhoP variant library, together with: 10 µM Mg2+; baseline: high Mg2+ state, higher = stronger signaling).

Excerpt of the above (study 2):
The fluorescence intensity of `CGCTTATACAAAAGGAACGTGATGGGGACATTATTTGTCTTGATTCGCTTGACGCTGCTG` is reported as 13500 a.u.
For `GAGCTTCAATCCTGTCACAAATCCATTGCTTGTCTCGTCTTGATTCGCTTGACGCTGCTG`, the fluorescence intensity was 3420 a.u.
